# Results gathered from unrelated publications.
# Every numbered part comes from another study and shows a few of its results, in no order. Values joined by “and” are separate records of one study, mostly repeats; a detail may differ.
# UniProt Q00526, sequence (whole entry, looked up): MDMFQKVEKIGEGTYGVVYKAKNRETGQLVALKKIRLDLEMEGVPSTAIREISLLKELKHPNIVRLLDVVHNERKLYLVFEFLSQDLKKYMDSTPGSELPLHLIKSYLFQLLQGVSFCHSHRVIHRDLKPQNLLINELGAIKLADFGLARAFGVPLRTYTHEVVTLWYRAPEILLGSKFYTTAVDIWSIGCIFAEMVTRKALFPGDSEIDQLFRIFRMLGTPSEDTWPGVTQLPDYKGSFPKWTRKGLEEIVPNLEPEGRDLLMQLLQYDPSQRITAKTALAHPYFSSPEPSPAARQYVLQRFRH
# UniProt P48729, sequence (whole entry, looked up): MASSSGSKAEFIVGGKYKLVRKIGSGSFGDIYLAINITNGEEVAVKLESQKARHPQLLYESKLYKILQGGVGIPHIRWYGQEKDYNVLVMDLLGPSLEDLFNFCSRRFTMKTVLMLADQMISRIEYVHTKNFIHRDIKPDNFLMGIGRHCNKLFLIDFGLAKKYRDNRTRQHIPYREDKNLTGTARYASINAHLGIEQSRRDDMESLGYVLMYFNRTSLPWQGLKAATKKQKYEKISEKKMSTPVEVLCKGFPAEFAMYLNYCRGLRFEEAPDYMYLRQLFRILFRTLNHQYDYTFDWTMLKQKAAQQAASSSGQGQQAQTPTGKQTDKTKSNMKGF
# UniProt P54762, sequence (whole entry, looked up): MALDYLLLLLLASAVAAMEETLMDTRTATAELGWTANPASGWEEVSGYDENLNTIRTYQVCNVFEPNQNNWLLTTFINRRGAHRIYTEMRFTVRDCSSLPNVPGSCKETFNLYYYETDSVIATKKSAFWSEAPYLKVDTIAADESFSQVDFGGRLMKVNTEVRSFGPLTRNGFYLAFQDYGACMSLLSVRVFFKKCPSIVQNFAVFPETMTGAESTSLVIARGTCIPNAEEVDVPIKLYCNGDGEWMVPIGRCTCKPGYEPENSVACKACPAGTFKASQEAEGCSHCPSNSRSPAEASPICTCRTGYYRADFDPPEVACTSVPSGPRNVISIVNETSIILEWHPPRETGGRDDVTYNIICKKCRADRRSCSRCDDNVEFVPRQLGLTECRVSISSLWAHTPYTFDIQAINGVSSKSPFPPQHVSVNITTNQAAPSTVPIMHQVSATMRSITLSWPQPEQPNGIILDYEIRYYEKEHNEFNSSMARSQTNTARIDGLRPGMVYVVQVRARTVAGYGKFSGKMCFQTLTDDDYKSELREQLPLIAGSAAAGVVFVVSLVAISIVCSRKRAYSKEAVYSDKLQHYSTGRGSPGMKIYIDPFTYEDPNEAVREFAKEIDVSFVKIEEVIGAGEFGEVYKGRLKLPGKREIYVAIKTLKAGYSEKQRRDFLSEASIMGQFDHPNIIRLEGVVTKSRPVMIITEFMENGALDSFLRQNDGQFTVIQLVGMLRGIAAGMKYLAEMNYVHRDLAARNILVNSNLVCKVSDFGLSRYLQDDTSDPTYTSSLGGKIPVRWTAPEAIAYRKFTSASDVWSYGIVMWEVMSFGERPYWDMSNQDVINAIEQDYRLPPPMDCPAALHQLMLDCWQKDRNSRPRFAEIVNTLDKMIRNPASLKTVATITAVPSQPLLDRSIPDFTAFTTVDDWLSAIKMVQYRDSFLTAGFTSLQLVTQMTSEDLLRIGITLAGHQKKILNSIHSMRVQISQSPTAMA
# UniProt Q16620, sequence (whole entry, looked up): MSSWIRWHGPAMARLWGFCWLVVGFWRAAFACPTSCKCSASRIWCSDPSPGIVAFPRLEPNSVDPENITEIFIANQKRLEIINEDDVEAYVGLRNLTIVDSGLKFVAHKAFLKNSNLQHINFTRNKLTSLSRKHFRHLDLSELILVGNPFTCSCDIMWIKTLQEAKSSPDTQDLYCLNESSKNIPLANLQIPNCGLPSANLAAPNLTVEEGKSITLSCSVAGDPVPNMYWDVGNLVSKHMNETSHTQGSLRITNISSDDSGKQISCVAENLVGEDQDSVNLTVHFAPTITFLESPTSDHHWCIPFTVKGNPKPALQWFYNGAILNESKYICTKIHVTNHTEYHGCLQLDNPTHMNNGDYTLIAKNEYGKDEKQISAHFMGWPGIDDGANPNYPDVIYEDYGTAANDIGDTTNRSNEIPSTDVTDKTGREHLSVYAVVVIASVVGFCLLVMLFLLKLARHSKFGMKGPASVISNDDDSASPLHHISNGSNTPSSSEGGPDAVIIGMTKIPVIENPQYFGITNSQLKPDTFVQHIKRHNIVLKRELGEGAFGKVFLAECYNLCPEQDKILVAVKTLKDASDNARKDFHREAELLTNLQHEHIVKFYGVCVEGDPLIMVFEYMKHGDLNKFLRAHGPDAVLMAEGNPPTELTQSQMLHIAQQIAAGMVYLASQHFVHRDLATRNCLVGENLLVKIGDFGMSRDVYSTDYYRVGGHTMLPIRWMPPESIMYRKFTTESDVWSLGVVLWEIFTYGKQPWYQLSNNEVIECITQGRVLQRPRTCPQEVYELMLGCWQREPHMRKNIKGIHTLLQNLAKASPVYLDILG
# UniProt Q16539, sequence (whole entry, looked up): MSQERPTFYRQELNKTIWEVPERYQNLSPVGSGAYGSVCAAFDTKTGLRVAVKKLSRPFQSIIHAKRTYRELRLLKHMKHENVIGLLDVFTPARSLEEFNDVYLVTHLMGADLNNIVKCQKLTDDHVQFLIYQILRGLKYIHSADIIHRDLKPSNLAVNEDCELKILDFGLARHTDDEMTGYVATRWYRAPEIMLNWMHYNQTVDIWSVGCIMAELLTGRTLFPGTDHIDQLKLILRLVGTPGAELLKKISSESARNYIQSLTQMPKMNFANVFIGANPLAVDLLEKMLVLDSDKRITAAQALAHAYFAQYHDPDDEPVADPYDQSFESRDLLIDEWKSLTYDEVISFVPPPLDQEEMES

# Sample 1 — cell line: U-87 MG; tested at: concentration not given; baseline: DMSO
# Compound: CCN1/C(=C/C=C2\CCCC(/C=C/C3=[N+](CC)c4ccccc4C3(C)C)=C2NCCCCCCCCN2CCC(Nc3nc4ccccc4n3Cc3ccc(F)cc3)CC2)C(C)(C)c2ccccc21
item,log2 fold change
LRIF1 mRNA,1.01
NES mRNA,-2.06
ZNF618 mRNA,-2.42
OSBPL7 mRNA,-1.59
VCL mRNA,-1.69
HS3ST3A1 mRNA,-1.86
ISY1-RAB43 mRNA,0.948
NIPA1 mRNA,1.07
AIFM2 mRNA,1.4
DRAM1 mRNA,1.31
KHDRBS3 mRNA,1.13
DIXDC1 mRNA,-1.13
SPEG mRNA,-1.54
PHLDB2 mRNA,-1.74
SAPCD1 mRNA,-1.58
NETO1 mRNA,3.48

# Sample 2 — tested at: 1 µM
# Structure (SMILES): CCC1(c2cccc(-c3cn(C)nc3C)c2)C2=C(Nc3n[nH]cc31)C(F)C(C)(C)CC2=O (single isomer, unassigned)
target,effect on,method,baseline,remaining binding
"KIT (Homo sapiens, UniProt P10721, T670I/V559D)",kinase binding,KINOMEscan,DMSO control,84%
"TBK1 (Homo sapiens, UniProt Q9UHD2)",binding,competition with immobilised ligand,,100%
"FLT3 ITD, human",,KINOMEscan,,100%
"CSNK2A1 (Homo sapiens, UniProt P68400)",kinase binding,KINOMEscan,DMSO control,95%
"BMX (Homo sapiens, UniProt P51813)",binding,competition with immobilised ligand,,100%
"CDK3 (Homo sapiens, UniProt Q00526)",kinase binding,KINOMEscan,DMSO control,100%
"NTRK2 (Homo sapiens, UniProt Q16620)",binding,competition with immobilised ligand,,99%
"MKNK2 (Homo sapiens, UniProt Q9HBH9)",binding,competition with immobilised ligand,,100%
"MAPKAPK5 (Homo sapiens, UniProt Q8IW41)",binding,competition with immobilised ligand,,100%
"CSNK1A1 (Homo sapiens, UniProt P48729)",kinase binding,KINOMEscan,DMSO control,100%
"CLK3 (Homo sapiens, UniProt P49761)",binding,competition with immobilised ligand,,100%
"FLT3 (Homo sapiens, UniProt P36888, D835Y)",kinase binding,KINOMEscan,DMSO control,100%
"MARK3 (Homo sapiens, UniProt P27448)",binding,competition with immobilised ligand,,97%
"EPHB1 (Homo sapiens, UniProt P54762)",kinase binding,KINOMEscan,DMSO control,100%
"MAPK14 (Homo sapiens, UniProt Q16539)",binding,competition with immobilised ligand,,100%

# Sample 3 — effect on: thermal unfolding; method: differential scanning fluorimetry; tested at: 5.5 µM; direction: higher = more unfolded
# Structure (SMILES): C[C@@H]1CN(c2ccc(-c3cc(C(=O)NCCOCCOCCOCCOCCNC(=O)Cn4cc(-c5[nH]cc(C(=O)N[C@@H](CC(N)=O)c6ccc(F)c(Cl)c6)c5-c5ccc(Cl)cc5F)cn4)ccc3F)cc2NC(=O)c2c[nH]c(=O)cc2C(F)(F)F)C[C@H](C)N1C
# DCAF1: DDB1- and CUL4-associated factor 1 (DCAF1, Homo sapiens, UniProt Q9Y4B6)
# UniProt Q9Y4B6, sequence (whole entry, looked up): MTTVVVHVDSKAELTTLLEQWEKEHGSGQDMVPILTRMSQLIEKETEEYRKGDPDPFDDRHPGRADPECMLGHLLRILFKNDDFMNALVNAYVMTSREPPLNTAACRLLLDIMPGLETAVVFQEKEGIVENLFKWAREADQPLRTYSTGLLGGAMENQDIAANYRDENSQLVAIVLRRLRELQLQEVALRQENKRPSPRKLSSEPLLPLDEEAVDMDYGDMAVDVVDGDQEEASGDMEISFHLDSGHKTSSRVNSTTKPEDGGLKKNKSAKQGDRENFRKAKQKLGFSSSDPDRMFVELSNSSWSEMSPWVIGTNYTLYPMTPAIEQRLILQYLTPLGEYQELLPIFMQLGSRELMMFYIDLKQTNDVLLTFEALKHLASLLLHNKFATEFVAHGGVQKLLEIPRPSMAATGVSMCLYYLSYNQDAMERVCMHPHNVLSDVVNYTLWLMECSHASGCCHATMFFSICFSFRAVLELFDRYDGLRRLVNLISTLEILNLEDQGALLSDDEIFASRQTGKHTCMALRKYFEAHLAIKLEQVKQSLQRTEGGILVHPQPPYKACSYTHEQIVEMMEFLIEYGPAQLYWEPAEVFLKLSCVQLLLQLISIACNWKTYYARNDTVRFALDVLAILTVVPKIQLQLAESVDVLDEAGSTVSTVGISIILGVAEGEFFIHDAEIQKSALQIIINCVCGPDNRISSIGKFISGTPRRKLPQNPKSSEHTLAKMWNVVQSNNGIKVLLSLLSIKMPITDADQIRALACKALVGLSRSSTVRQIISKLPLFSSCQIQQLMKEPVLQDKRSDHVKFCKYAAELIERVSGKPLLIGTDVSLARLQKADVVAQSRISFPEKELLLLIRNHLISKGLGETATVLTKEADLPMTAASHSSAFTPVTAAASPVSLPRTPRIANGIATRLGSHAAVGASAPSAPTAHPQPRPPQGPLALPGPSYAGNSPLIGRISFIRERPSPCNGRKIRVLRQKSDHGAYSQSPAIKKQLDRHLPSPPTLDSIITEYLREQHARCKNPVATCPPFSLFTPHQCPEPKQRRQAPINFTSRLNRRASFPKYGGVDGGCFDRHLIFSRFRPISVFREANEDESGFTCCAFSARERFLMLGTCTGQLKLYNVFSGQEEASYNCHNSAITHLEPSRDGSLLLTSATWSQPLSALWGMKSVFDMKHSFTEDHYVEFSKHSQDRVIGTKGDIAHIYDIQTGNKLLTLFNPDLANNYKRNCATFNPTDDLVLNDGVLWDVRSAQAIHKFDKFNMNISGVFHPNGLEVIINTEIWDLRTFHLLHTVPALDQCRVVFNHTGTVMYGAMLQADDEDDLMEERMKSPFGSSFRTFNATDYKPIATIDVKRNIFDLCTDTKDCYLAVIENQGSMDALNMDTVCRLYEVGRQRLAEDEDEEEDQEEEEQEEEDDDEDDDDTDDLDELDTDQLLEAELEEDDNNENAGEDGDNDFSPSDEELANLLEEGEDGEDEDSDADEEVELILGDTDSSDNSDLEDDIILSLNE
# WDR5: WD repeat-containing protein 5 (WDR5, Homo sapiens, UniProt P61964)
target,temperature,SYPRO Orange fluorescence [a.u.]
DCAF1,63.01 °C,51500
DCAF1,67.81 °C,56300
DCAF1,28 °C,7830
DCAF1,36 °C,9190
DCAF1,38.4 °C,9760
WDR5,91.01 °C,42400
DCAF1,48.2 °C,13600
DCAF1,78.81 °C,45200
WDR5,40.6 °C,14200
DCAF1,82.61 °C,42000
DCAF1,90.41 °C,34700

# Further values, each from its own experiment
# Target: Myeloperoxidase (MPO, Homo sapiens, UniProt P05164)
# UniProt P05164, sequence (whole entry, looked up): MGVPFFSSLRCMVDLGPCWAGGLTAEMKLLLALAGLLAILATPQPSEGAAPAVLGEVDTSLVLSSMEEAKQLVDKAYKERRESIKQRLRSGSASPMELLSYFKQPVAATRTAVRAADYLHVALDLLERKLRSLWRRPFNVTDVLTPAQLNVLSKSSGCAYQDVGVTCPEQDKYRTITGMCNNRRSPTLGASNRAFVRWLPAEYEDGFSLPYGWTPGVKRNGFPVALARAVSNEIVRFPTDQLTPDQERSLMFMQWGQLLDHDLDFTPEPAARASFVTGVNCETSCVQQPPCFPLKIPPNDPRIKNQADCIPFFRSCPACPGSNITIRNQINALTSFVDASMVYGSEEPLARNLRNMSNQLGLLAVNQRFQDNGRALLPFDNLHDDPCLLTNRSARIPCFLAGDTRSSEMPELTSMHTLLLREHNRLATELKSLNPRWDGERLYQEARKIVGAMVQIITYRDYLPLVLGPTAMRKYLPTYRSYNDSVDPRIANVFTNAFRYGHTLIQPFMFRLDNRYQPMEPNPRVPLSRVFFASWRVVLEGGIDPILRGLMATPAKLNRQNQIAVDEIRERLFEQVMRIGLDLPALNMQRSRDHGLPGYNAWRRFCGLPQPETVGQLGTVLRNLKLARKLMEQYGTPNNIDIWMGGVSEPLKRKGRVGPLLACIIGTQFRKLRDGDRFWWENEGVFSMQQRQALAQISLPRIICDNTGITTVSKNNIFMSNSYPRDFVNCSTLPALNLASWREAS
SMILES,effect on,action,method,tested at,inhibition
CC(C)(C)NC(=O)c1ccc(OC/C(=C/F)CN)cc1,enzyme activity,inhibitor,fluorescence,3.333 µM,-11.7% and -10.4% and -15.8%
NC/C(=C/F)COc1cccc(Cn2c(=S)[nH]c(=O)c3[nH]cnc32)c1,H2O2 consumption,inhibitor,Amplex Red,1.694e-05 µM,4.24%
NC/C(=C\F)COc1ccc(C(F)(F)F)c(Cn2c(=S)[nH]c(=O)c3[nH]cnc32)c1,enzyme activity,,,0.3704 µM,90.5% and 84.8%
C=C(CN)COc1cccc(Cn2c(=S)[nH]c(=O)c3[nH]cnc32)c1,enzyme activity,,,1.111 µM,99.3% and 99.5%
